Results collected from several papers.
Lines come from different studies, so protocols differ. Several values in a cell are separate wells, animals, samples, runs or records. ± marks the error that the study gave.
Chain of UniProt Q9UQM7 (whole entry, looked up): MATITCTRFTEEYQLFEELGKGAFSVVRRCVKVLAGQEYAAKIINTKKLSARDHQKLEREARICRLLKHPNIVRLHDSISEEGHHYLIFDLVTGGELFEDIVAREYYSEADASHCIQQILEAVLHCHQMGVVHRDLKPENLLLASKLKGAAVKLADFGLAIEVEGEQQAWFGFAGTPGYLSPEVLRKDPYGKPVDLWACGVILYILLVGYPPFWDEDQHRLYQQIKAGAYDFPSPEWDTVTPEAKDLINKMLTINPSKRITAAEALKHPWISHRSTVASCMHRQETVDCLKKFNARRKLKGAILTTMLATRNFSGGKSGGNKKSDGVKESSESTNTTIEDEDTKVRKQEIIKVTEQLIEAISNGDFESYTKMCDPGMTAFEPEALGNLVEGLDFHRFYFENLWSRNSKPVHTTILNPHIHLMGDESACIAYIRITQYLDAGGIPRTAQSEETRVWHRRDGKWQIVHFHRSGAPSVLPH

With `C[n+]1cccc2cc(/C=N/NC(=O)C(=O)N/N=C/c3ccc4c(ccc[n+]4C)c3)ccc21` the ΔTm was 2 ± 0.6 °C (22CTA telomeric G4-DNA antiparallel; FRET melting; 1 µM, K10 buffer, DNA 0.2 µM, added: ds26 10 µM).
With `C=CC(=O)N1[C@@H](c2ccc3c(c2)OCO3)c2[nH]c3ccccc3c2C[C@H]1C(=O)N1CCN(C)CC1` the relative co-enrichment was 100% (human cyclin E1 wild type-3xFLAG:CDK2; co-IP with TMT proteomics, measured: PRDX1; concentration not given, Q06830; reference: wild type DMSO).
The amount of `COc1cc(O)ccc1CCC(c1ccc(O)cc1)c1cc2c(c(C)c1O)OC(c1ccc(O)cc1)CC2` (mixture of isomers) is reported as 23800 ± 2860 pg/mL blood (measured: docosahexaenoic acid; human whole blood; 3 µM, added: Escherichia coli).
For `Nc1nc2cc(CC[C@H]3C[C@@H](n4ccc5c(N)ncnc54)[C@H](O)[C@@H]3O)ccc2cc1Br`, the tumour volume was 329 ± 77 mm3 (A-427 xenograft, mouse; 1.0 mg/kg/day, day 34).
For `C=C(NC(=O)c1csc(-c2nc3c(cc2O)-c2nc(cs2)C(=O)NC(C(C)O)C(=O)NC(=C(C)OC)c2nc(cs2)C(=O)NC2c4nc(cs4)C(=O)NC(COC(=O)c4c5c6c(cccc6n4O)COC(=O)C(OC4CC(C)(O)C(N(C)C)C(C)O4)C2OC5)c2nc-3cs2)n1)C(N)=O` (stereo not drawn), “volume of distribution” read 29.8 L/kg (Sprague-Dawley rat, both sexes, plasma; intravenous infusion, 18 mg/kg single dose).
`CC(C)C[C@H](NC(=O)[C@@H](CCCCNC(=O)[C@@H](Cc1ccccc1)NC(=O)CCCCCNC(=O)CN1CCN(CC(=O)O)CCN(CC(=O)O)CCN(CC(=O)O)CC1)NC(=O)[C@H](Cc1ccc(O)cc1)NC(=O)[C@H](CO)NC(=O)[C@H](Cc1c[nH]c2ccccc12)NC(=O)[C@H](Cc1c[nH]cn1)NC(=O)[C@@H]1CCC(=O)N1)C(=O)N[C@@H](CCCNC(=N)N)C(=O)N1CCC[C@H]1C(=O)NCC(N)=O` [indium-111 labelled] has a tissue uptake of 0.62 ± 0.1 %ID/g (female athymic nude mice, liver; intravenous, 0.037 MBq, 1 h).
Under “activated partial thromboplastin time”, `COC1OC(C)C(OC2OC(C)C(OS(=O)(=O)O)C(OC3OC(C)C(OC4OC(C)C(OS(=O)(=O)O)C(OC5OC(C)C(OC6OC(C)C(OS(=O)(=O)O)C(OC7OC(C)C(OC8OC(C)C(OS(=O)(=O)O)C(OC9OC(C)C(OC%10OC(C)C(OS(=O)(=O)O)C(OS(=O)(=O)O)C%10O)C(OS(=O)(=O)O)C9O)C8O)C(OS(=O)(=O)O)C7O)C6O)C(OS(=O)(=O)O)C5O)C4O)C(OS(=O)(=O)O)C3O)C2O)C(OS(=O)(=O)O)C1O` (stereo not drawn) is recorded as 39.9 ± 0.4 s (human plasma; 128 µg/mL).
`COc1cc2c(NC3CCN(C(C)C)CC3)cc(N3CCOCC3)nc2cc1OCCCN1CCCC1` — result for “protein level difference”: 0.0856 (TMT proteomics, measured: MDH1; 5xFAD mice, hippocampus; dose not given, unit not given; reference: untreated 5xFAD).
`COC(=O)C1CN1S(=O)(=O)c1ccc2cc(C)ccc2c1` (stereo not drawn): “tumour growth inhibition” 38% (mouse, Lewis lung carcinoma; ip, 100 mg/kg, 288 h).
For `O=C([O-])CN1CCN(CC(=O)[O-])CCN(CC(=O)c2ccc(-c3ccc(OCC(=O)O)cc3)cc2)CCN(CC(=O)[O-])CC1.[Gd+3]`, “T1 relaxation time” read 558 ms (PBS; 0.3 mM, 25 °C, 7 T).
For `Nc1ncc(-c2cc(-c3cnn(CC(F)(F)F)c3)ncc2F)nc1C(=O)NC1CNCC(F)C1` (stereo not drawn), the remaining binding was 100% (WNK2; KINOMEscan; 1 µM; reference: DMSO control).
The hepatic clearance of `O=C(NCCO)c1ccc(C2CCCCC2)cc1` is reported as 76 mL/min/kg (hepatocyte stability; cryopreserved mouse hepatocytes; 1 µM).
Under “log2 fold change”, `Cc1ncsc1-c1ccc(C(C)NC(=O)C2CC(O)CN2C(=O)C(NC(=O)CCCCCCCCCCN2CCCC(Nc3ncc(Cl)c(Nc4ccccc4S(=O)(=O)C(C)C)n3)C2)C(C)(C)C)cc1` (stereo not drawn) is recorded as -1.13 (22Rv1; RNA-seq, measured: TAF4B mRNA; concentration not given; reference: DMSO).
Under “not evaluable patients”, `COCC1CN(C2CCN(c3cc(OC)c(Nc4ncc(Br)c(Nc5ccc6c(c5P(C)(C)=O)OCCO6)n4)cc3C)CC2)C1` is recorded as 0% (RECIST 1.1; advanced EGFR-mutant NSCLC patients; 90 mg once daily).
`COC1OC(C)C(OC2OC(C)C(OS(=O)(=O)O)C(OC3OC(C)C(OC4OC(C)C(OS(=O)(=O)O)C(OC5OC(C)C(OC6OC(C)C(OS(=O)(=O)O)C(OS(=O)(=O)O)C6OS(=O)(=O)O)C(OS(=O)(=O)O)C5OS(=O)(=O)O)C4OS(=O)(=O)O)C(OS(=O)(=O)O)C3OS(=O)(=O)O)C2OS(=O)(=O)O)C(OS(=O)(=O)O)C1OS(=O)(=O)O` (stereo not drawn): “activated partial thromboplastin time” 70 s and 74.1 s and 73.4 s (human plasma; 32 µg/mL).
`Cc1[nH]nc2c1N=C(c1ccccc1Cl)c1cnc(N3CCOCC3)cc1N2`: “tumour growth inhibition” 97% (mouse sample D TNBC PDX, LAR subtype; oral, 15 mg/kg, 5 days per week).
`C=CC(=O)Nc1cccc(Cn2ncc3cnc(Nc4cnn(CCOC)c4)nc32)c1` — result for “percent of control”: 92% (RIPK1 human; binding, KINOMEscan; 100 nM; lower = stronger binding).
`CCCCCc1ccc(S(=O)(=O)N2CC2C(=O)OC)cc1` (stereo not drawn) — result for “tumour growth inhibition”: 71% (mouse, Lewis lung carcinoma; intraperitoneal, 5 mg/kg, 16 doses, day 16).
For `CN1CCC[C@]1(C)/C=C/S(=O)(=O)NC(=O)Nc1c2c(cc3c1CCC3)CCC2`, the IL-1β inhibition was 99.3% (human, whole blood ex vivo; 400 mg single dose, 12 h, single ascending dose, added: LPS and ATP).
For `Cc1nn(-c2cccc(N)c2)c(=O)c2cnc(Nc3ccc(N4CCNCC4)cc3)nc12`, the IC50 was over 10 µM (CAMK2A (Homo sapiens, UniProt Q9UQM7); SelectScreen kinase).
`COC1OC(C)C(OC2OC(C)C(O)C(OC3OC(C)C(OC4OC(C)C(O)C(OC5OC(C)C(OC6OC(C)C(O)C(OC7OC(C)C(OC8OC(C)C(O)C(OS(=O)(=O)O)C8OS(=O)(=O)O)C(OS(=O)(=O)O)C7OS(=O)(=O)O)C6OS(=O)(=O)O)C(OS(=O)(=O)O)C5OS(=O)(=O)O)C4OS(=O)(=O)O)C(OS(=O)(=O)O)C3OS(=O)(=O)O)C2OS(=O)(=O)O)C(OS(=O)(=O)O)C1OS(=O)(=O)O` (stereo not drawn) — result for “activated partial thromboplastin time”: 67 s and 68.4 s and 69.4 s (human plasma; 16 µg/mL).
`C=C1CC[C@H](OCCCNC(=O)CCOCCOCCOCCOCCOCCOCCOCCOCCOCCOCCOCCOCCOCCOCCOCCOCCOCCOCCOCCOCCOCCOCCOCCOCCOCCOCCOCCOCCOCCOCCOCCOCCOCCOCCOCCOCCNC(=O)CCN2C(=O)CC(SC[C@H](NC(=O)[C@H](Cc3ccccc3)NC(=O)[C@H](CC(N)=O)NC(=O)[C@H](Cc3c[nH]cn3)NC(=O)[C@@H](NC(=O)[C@H](CC(=O)O)NC(=O)[C@H](CCC(N)=O)NC(=O)[C@H](CC(C)C)NC(=O)[C@H](CCCCN)NC(=O)[C@H](CCCCN)NC(=O)[C@H](CCCNC(=N)N)NC(=O)[C@H](CC(C)C)NC(=O)[C@H](Cc3c[nH]c4ccccc34)NC(=O)[C@H](CCC(=O)O)NC(=O)[C@@H](NC(=O)[C@H](CCCNC(=N)N)NC(=O)[C@H](CCC(=O)O)NC(=O)[C@H](CCSC)NC(=O)[C@H](CO)NC(=O)[C@H](CC(N)=O)NC(=O)[C@H](CC(C)C)NC(=O)[C@H](Cc3c[nH]cn3)NC(=O)[C@H](CCCCN)NC(=O)CNC(=O)[C@H](CC(C)C)NC(=O)[C@H](CC(N)=O)NC(=O)[C@H](Cc3c[nH]cn3)NC(=O)[C@H](CCSC)NC(=O)[C@H](CC(C)C)NC(=O)[C@H](CCC(N)=O)NC(=O)[C@@H](NC(=O)[C@H](CCC(=O)O)NC(=O)[C@H](CO)NC(=O)[C@@H](NC(=O)[C@@H](N)CO)C(C)C)[C@@H](C)CC)C(C)C)C(C)C)C(=O)O)C2=O)C/C1=C/C=C1\CCC[C@]2(C)[C@@H]([C@H](C)CCCC(C)(C)O)CC[C@@H]12` (stereo partly drawn) has a half-life of 9.21 h (male Sprague-Dawley rat, plasma; subcutaneous, 300 µg/kg, single dose).
Under “activated partial thromboplastin time”, `COC1OC(C)C(OS(=O)(=O)O)C(OC2OC(C)C(OS(=O)(=O)O)C(OC3OC(C)C(OS(=O)(=O)O)C(OC4OC(C)C(OS(=O)(=O)O)C(OC5OC(C)C(OS(=O)(=O)O)C(OC6OC(C)C(OS(=O)(=O)O)C(OS(=O)(=O)O)C6OS(=O)(=O)O)C5OS(=O)(=O)O)C4OS(=O)(=O)O)C3OS(=O)(=O)O)C2OS(=O)(=O)O)C1OS(=O)(=O)O` (stereo not drawn) is recorded as 46.3 s and 45.8 s and 45.9 s (human plasma; 8 µg/mL).
With `Cc1ccc(N(O)/N=N/c2ccc(S(=O)(=O)Nc3nccs3)cc2)cc1` the inhibition was 49.8% (ABTS scavenging; 60 µg/mL).
For `COC1OC(C)C(OC2OC(C)C(OS(=O)(=O)O)C(OC3OC(C)C(OC4OC(C)C(OS(=O)(=O)O)C(OC5OC(C)C(OS(=O)(=O)O)C(OS(=O)(=O)O)C5O)C4O)C(OS(=O)(=O)O)C3O)C2O)C(OS(=O)(=O)O)C1O` (stereo not drawn), “activated partial thromboplastin time” read 34.3 ± 0.5 s (human plasma; 128 µg/mL).
For `COc1cnc2cccc(N3CCc4c(cc(Cn5ccnc5)cc4-c4cn(C)nc4C(F)(F)F)C3=O)c2c1`, the tumour volume was 274 mm3 and 183 mm3 and 239 mm3 and 160 mm3 and 310 mm3 and 215 mm3 (BALB/c nude mice, MV4-11 xenograft; intraperitoneal, 50 mg/kg, day 21).
`COC1OC(C)C(OS(=O)(=O)O)C(OC2OC(C)C(OS(=O)(=O)O)C(OC3OC(C)C(OS(=O)(=O)O)C(OC4OC(C)C(OS(=O)(=O)O)C(OC5OC(C)C(OS(=O)(=O)O)C(OC6OC(C)C(OS(=O)(=O)O)C(OC7OC(C)C(OS(=O)(=O)O)C(OC8OC(C)C(OS(=O)(=O)O)C(OC9OC(C)C(OS(=O)(=O)O)C(OC%10OC(C)C(OS(=O)(=O)O)C(OS(=O)(=O)O)C%10OS(=O)(=O)O)C9OS(=O)(=O)O)C8OS(=O)(=O)O)C7OS(=O)(=O)O)C6OS(=O)(=O)O)C5OS(=O)(=O)O)C4OS(=O)(=O)O)C3OS(=O)(=O)O)C2OS(=O)(=O)O)C1OS(=O)(=O)O` (stereo not drawn) — result for “activated partial thromboplastin time”: 74.1 s and 73.8 s and 74.2 s (human plasma; 16 µg/mL).
The inhibition of `CC(=O)[O-].O.O.O.O.[Mn+2].[O-]c1ccc(Br)cc1C=NCCN1CCOCC1` is reported as 30.2% (hydroxyl radical scavenging; 120 µM).
`COC1OC(C)C(OC2OC(C)C(O)C(OC3OC(C)C(OC4OC(C)C(O)C(OC5OC(C)C(OC6OC(C)C(O)C(OC7OC(C)C(OC8OC(C)C(O)C(OC9OC(C)C(O)C(OS(=O)(=O)O)C9OS(=O)(=O)O)C8OS(=O)(=O)O)C(OS(=O)(=O)O)C7OS(=O)(=O)O)C6OS(=O)(=O)O)C(OS(=O)(=O)O)C5OS(=O)(=O)O)C4OS(=O)(=O)O)C(OS(=O)(=O)O)C3OS(=O)(=O)O)C2OS(=O)(=O)O)C(OS(=O)(=O)O)C1OS(=O)(=O)O` (stereo not drawn) — result for “activated partial thromboplastin time”: 68.7 s and 69.6 s and 70.5 s (human plasma; 32 µg/mL).
`Nc1ccc2c(c1)C(=O)N(C1CCC(=O)NC1=O)C2=O` (stereo not drawn) — result for “exchange rate constant”: -0.0175 h⁻¹ (deuterium-hydrogen exchange; aqueous phosphate buffer; pH 7.4, 37 °C).
With `C[n+]1ccc(/C=N/NC(=O)N/N=C/c2cc[n+](C)c3ccccc23)c2ccccc21` the ΔTm was 4.3 ± 2.3 °C (22CTA telomeric G4-DNA antiparallel; FRET melting; 1 µM, K10 buffer, DNA 0.2 µM, added: ds26 10 µM).
For `COc1ccc(NC(=O)c2ccc3[nH]c(-c4ccc(N(C)C)cc4)nc3c2)cn1`, the tumour volume was 153 mm3 and 673 mm3 and 970 mm3 and 877 mm3 and 515 mm3 (CT26, BALB/c mice, subcutaneous syngeneic graft; dose not given, day 14).
Under “log2 fold change”, `COC1CN([C@H]2CC[C@H]([C@@]3(C)Oc4c(Cl)cc(C(=O)NCc5c(SC)cc(C)[nH]c5=O)c(C)c4O3)CC2)C1` is recorded as 2.18 (RNA-seq, measured: FRMD6; human, whole blood; dose not given, 24 h; reference: pretreatment baseline).

Some of these lines once more:
`Cc1[nH]nc2c1N=C(c1ccccc1Cl)c1cnc(N3CCOCC3)cc1N2`: “tumour growth inhibition” 97% (mouse sample D TNBC PDX, LAR subtype; oral, 15 mg/kg, 5 days per week).
`C=CC(=O)Nc1cccc(Cn2ncc3cnc(Nc4cnn(CCOC)c4)nc32)c1` — result for “percent of control”: 92% (RIPK1 human; binding, KINOMEscan; 100 nM; lower = stronger binding).
`CCCCCc1ccc(S(=O)(=O)N2CC2C(=O)OC)cc1` (stereo not drawn) — result for “tumour growth inhibition”: 71% (mouse, Lewis lung carcinoma; intraperitoneal, 5 mg/kg, 16 doses, day 16).
For `CN1CCC[C@]1(C)/C=C/S(=O)(=O)NC(=O)Nc1c2c(cc3c1CCC3)CCC2`, the IL-1β inhibition was 99.3% (human, whole blood ex vivo; 400 mg single dose, 12 h, single ascending dose, added: LPS and ATP).
For `Cc1nn(-c2cccc(N)c2)c(=O)c2cnc(Nc3ccc(N4CCNCC4)cc3)nc12`, the IC50 was over 10 µM (CAMK2A (Homo sapiens, UniProt Q9UQM7); SelectScreen kinase).
